Assay results gathered from unrelated publications.
Compare with care: the assays were run in different laboratories. Several values in a cell are separate wells, animals, samples, runs or records. Numbers after ± are the reported error.

Cn1nc(NS(C)(=O)=O)c2c(Cl)ccc(-n3c([C@H](Cc4cc(F)cc(F)c4)NC(=O)Cn4nc(C(F)F)c5c4C(F)(F)[C@@H]4C[C@H]54)nc4nc(OCCC(F)(F)F)ccc4c3=O)c21  tmax (human, plasma; oral, 1875 mg single dose, powder in bottle, median): 9 h
N=C(N)NCCC[C@H](NC(=O)[C@H](CCCNC(=N)N)NC(=O)[C@H](CCCNC(=N)N)NC(=O)[C@H](CCC(N)=O)NC(=O)[C@H](CCCNC(=N)N)NC(=O)[C@H](CCCNC(=N)N)NC(=O)[C@H](CCCCN)NC(=O)[C@H](CCCCN)NC(=O)[C@H](CCCNC(=N)N)NC(=O)CNC(=O)[C@H](Cc1ccc(O)cc1)NC(=O)[C@H](Cc1ccccc1)NC(=O)[C@H](Cc1ccccc1)NC(=O)[C@H](Cc1ccccc1)NC(=O)Cc1ccc2ccccc2c1)C(=O)O  health score (C57BL/6 mice; intraperitoneal, 5 mg/kg, 0.5 h; direction not given): 5
O=C1NC2(CC2)COc2ncc(F)cc2[C@H]2COCCN2c2ccn3ncc1c3n2  organ-to-body weight ratio (Sprague-Dawley rat, female, brain; oral, 5 mg/kg/day, 4 weeks, end of treatment): 0.549 ± 0.04%
CSCC[C@H](NC(=O)CNC(=O)[C@H](CCCCN)NC(=O)[C@H](CC(C)C)NC(=O)[C@@H]1CCCN1C(=O)[C@H](CO)NC(=O)[C@H](Cc1c[nH]cn1)NC(=O)[C@H](Cc1c[nH]c2ccccc12)NC(=O)[C@H](CCCNC(=N)N)NC(=O)[C@H](CC(C)C)NC(=O)[C@H](CCCNC(=N)N)NC(=O)[C@H](Cc1c[nH]c2ccccc12)NC(=O)[C@H](CS)NC(=O)CCCCCNC(=O)CN1CCN(CC(=O)O)CCN(CC(=O)O)CCN(CC(=O)O)CC1)C(=O)O [copper-64 labelled]  tumour-to-blood ratio (C57BL/6J mice, B16-F10 tumour; intravenous, 1.85 MBq, 30 h; relative to: tumour over blood): 3.1
CC(C)C[C@H](NC(=O)[C@H](Cc1ccc(O)cc1)NC(=O)[C@H](Cc1c[nH]cn1)NC(=O)[C@H](CC(=O)O)NC(=O)[C@@H](NC(=O)[C@H](C)NC(=O)[C@H](CC(C)C)NC(=O)CNC(=O)CNC(=O)[C@@H](NC(=O)[C@@H](NC(=O)[C@H](CCCCN)NC(=O)CNC(=O)[C@@H](NC(=O)[C@H](CCCCN)NC(=O)[C@H](CCCCN)NC(=O)[C@H](C)NC(=O)[C@H](CCCNC(=N)N)NC(=O)[C@H](CC(N)=O)NC(=O)[C@H](Cc1ccccc1)NC(=O)[C@H](Cc1c[nH]c2ccccc12)NC(=O)[C@H](CCCCN)NC(=O)[C@H](CCCCN)NC(=O)[C@H](Cc1c[nH]c2ccccc12)NC(=O)CN)C(C)C)[C@@H](C)O)C(C)C)C(C)C)C(N)=O  chronic toxic concentration (zebrafish embryos 28 hpf, E3 medium; 24 h): 25 µM
COc1ccc(CNc2ccc3c(c2)S(=O)(=O)C=C3)cc1  spleen weight (male C57BL/6 mice; i.p., 20 mg/kg, day 8, repeated dosing): 0.179 g
CC[C@H](C)[C@H](NC(=O)[C@H](CCCCN)NC(=O)CNC(=O)[C@H](CC(C)C)NC(=O)[C@H](Cc1ccccc1)NC(=O)[C@H](CCCCN)NC(=O)[C@H](CO)NC(=O)[C@H](Cc1ccccc1)NC(=O)[C@H](Cc1c[nH]c2ccccc12)NC(=O)[C@H](CCC(N)=O)NC(=O)[C@@H](NC(=O)[C@H](Cc1ccccc1)NC(=O)CCCCCNC(=O)CN1CCN(CC(=O)O)CCN(CC(=O)O)CCN(CC(=O)O)CC1)C(C)C)C(=O)N[C@@H](CCC(=O)O)C(=O)N1CCC[C@H]1C(=O)N[C@@H](CC(=O)O)C(=O)N[C@H](C(=O)N[C@@H](CO)C(=O)N[C@@H](CCC(N)=O)C(=O)N[C@H](C(=O)N[C@@H](CCC(N)=O)C(=O)N[C@@H](CC(=O)O)C(=O)N1CCC[C@H]1C(=O)N[C@@H](CC(N)=O)C(=O)N[C@@H](CC(=O)O)C(=O)N[C@@H](CCC(N)=O)C(=O)N[C@@H](Cc1ccc(O)cc1)C(=O)N[C@@H](CCC(=O)O)C(=O)N1CCC[C@H]1C(=O)N[C@@H](Cc1ccccc1)C(=O)O)C(C)C)C(C)C [copper-64 labelled]  SUVmean (dynamic PET; mouse, CT26 tumour, checkpoint inhibitor-treated, tumour; intravenous, 100 µCi/mouse, 2820 s): 4.63 SUV
CCCCC(CC)COC(=O)CC(C(=O)OCC(CC)CCCC)S(=O)(=O)O.CCCSc1ccc2[nH]c(NC(=O)OC)nc2c1 (centres unmarked)  solubility (buffer; 24 h, pH 1.2, room temperature, equilibrium): 7.3 ± 2.5 µg/mL
COc1cnc2cccc(N3CCc4c(cc(Cn5ccnc5)cc4-c4cn(C)nc4C(F)(F)F)C3=O)c2c1  body weight (BALB/c nude mice, MV4-11 xenograft; intraperitoneal, 75 mg/kg, day 21): 22.5 g and 21.5 g and 25.2 g and 22.1 g and 23.6 g
CCCCCCCCCCCCCCCC(=O)N[C@@H](CCC(=O)NCCOCCOCCC(=O)NCCOCCOCCC(=O)NCCCC[C@H](NC(=O)[C@H](CC(=O)O)NC(=O)[C@H](CC(C)C)NC(=O)[C@H](Cc1ccc(O)cc1)NC(=O)[C@H](CCCCN)NC(=O)[C@H](CO)NC(=O)[C@H](Cc1ccc(O)cc1)NC(=O)[C@H](CC(=O)O)NC(=O)[C@H](CO)NC(=O)[C@@H](NC(=O)[C@H](Cc1ccccc1)NC(=O)[C@@H](NC(=O)CNC(=O)[C@H](CCC(N)=O)NC(=O)[C@@H](CO)NC(=O)[C@@H](N)Cc1c[nH]cn1)[C@@H](C)O)[C@@H](C)O)C(=O)N[C@@H](CCCNC(=N)N)C(=O)N[C@@H](CCCNC(=N)N)C(=O)N[C@@H](C)C(=O)N[C@@H](CCC(N)=O)C(=O)N[C@@H](CC(=O)O)C(=O)N[C@@H](Cc1ccccc1)C(=O)N[C@H](C(=O)N[C@@H](CCC(N)=O)C(=O)N[C@@H](Cc1c[nH]c2ccccc12)C(=O)N[C@@H](CC(C)C)C(=O)N[C@@H](CC(C)C)C(=O)N[C@@H](CC(N)=O)C(=O)N[C@H](C(=O)NCC(=O)NCC(=O)N1CCC[C@H]1C(=O)N[C@@H](CO)C(=O)N[C@@H](CO)C(=O)NCC(=O)N[C@@H](C)C(=O)N1CCC[C@H]1C(=O)N1CCC[C@H]1C(=O)N1CCC[C@H]1C(=O)N[C@@H](CO)C(N)=O)[C@@H](C)O)C(C)C)C(=O)O  Cmax (rhesus monkey, female, plasma; subcutaneous, 300 µg/kg, day 28, toxicokinetics, mean): 533 ng/mL
O=C(CN1CCN(CC(=O)NCc2ncccc2O)CCN(CC(=O)NCc2ncccc2O)CCN(CC(=O)NCc2ncccc2O)CC1)NCc1ncccc1O.[177Lu+3]  time to death (rat; intravenous, 0.1 mmol/kg): ≤ 1 min
CC(C)[C@@H]1NC(=O)CNC(=O)[C@H](CC(N)=O)NC(=O)[C@H](CCCNC(=N)N)NC(=O)[C@H](Cc2ccc(O)cc2)NC(=O)[C@H](C(C)C)NC(=O)[C@@H](NC(=O)[C@@H](NC(=O)[C@H](CC(N)=O)NC(=O)[C@H](Cc2c[nH]c3ccccc23)NC(=O)[C@H](C)NC(=O)[C@H](Cc2ccccc2)NC(=O)CNC(=O)[C@H](CCCCN)NC(=O)[C@H](Cc2ccccc2)NC(=O)[C@H](Cc2ccccc2)NC(=O)[C@H](CCCCN)NC(=O)OCC2c3ccccc3-c3ccccc32)C(C)C)CSSC[C@@H](C(=O)N[C@@H](Cc2c[nH]cn2)C(=O)N[C@@H](CCCNC(=N)N)C(=O)N[C@@H](CCCNC(=N)N)C(=O)N[C@@H](C)C(=O)N[C@@H](CC(N)=O)C(N)=O)NC(=O)[C@H](C(C)C)NC(=O)[C@H](CCCNC(=N)N)NC1=O  basophils (ICR mice, blood; intraperitoneal, 5 mg/kg, day 5): 1.58 ± 0.25%
CC(C)C[C@H](NC(=O)[C@H](Cc1ccc(O)cc1)NC(=O)[C@H](Cc1c[nH]cn1)NC(=O)[C@H](CC(N)=O)NC(=O)[C@H](CC(C)C)NC(=O)[C@H](C)NC(=O)[C@H](CC(C)C)NC(=O)CNC(=O)CNC(=O)[C@@H](NC(=O)[C@@H](NC(=O)[C@H](CCCCN)NC(=O)CNC(=O)[C@@H](NC(=O)[C@H](CCCCN)NC(=O)[C@H](CCCCN)NC(=O)[C@H](C)NC(=O)[C@H](CCCCN)NC(=O)[C@H](CCCNC(=N)N)NC(=O)[C@H](Cc1ccccc1)NC(=O)[C@H](Cc1c[nH]c2ccccc12)NC(=O)[C@H](CC(=O)O)NC(=O)[C@H](CCCCN)NC(=O)[C@H](Cc1c[nH]c2ccccc12)NC(=O)CN)C(C)C)[C@@H](C)O)C(C)C)C(N)=O  chronic toxic concentration (zebrafish embryos 4 hpf, E3 medium; 24 h): 5 µM
CSCC[C@H](N)C(=O)N[C@@H](C)C(=O)N[C@@H](CCCNC(=N)N)C(=O)N[C@@H](CCCNC(=N)N)C(=O)N[C@@H](CC(=O)O)C(=O)N[C@@H](CCCCN)C(=O)N[C@H](C(=O)N[C@@H](CC(=O)O)C(=O)N[C@@H](Cc1ccccc1)C(=O)N[C@@H](C)C(=O)N[C@@H](CCCNC(=N)N)C(=O)N[C@@H](CCCNC(=N)N)C(=O)N[C@@H](CCCNC(=N)N)C(=O)N[C@@H](CCCNC(=N)N)C(=O)NCCCCCC(=O)NCCCCC(NC(=O)CCCCCNC(=O)[C@H](CCCNC(=N)N)NC(=O)[C@H](CCCNC(=N)N)NC(=O)[C@H](CCCNC(=N)N)NC(=O)[C@H](CCCNC(=N)N)NC(=O)[C@H](C)NC(=O)[C@H](Cc1ccccc1)NC(=O)[C@H](CC(=O)O)NC(=O)[C@@H](NC(=O)[C@H](CCCCN)NC(=O)[C@H](CC(=O)O)NC(=O)[C@H](CCCNC(=N)N)NC(=O)[C@H](CCCNC(=N)N)NC(=O)[C@H](C)NC(=O)[C@@H](N)CCSC)[C@@H](C)O)C(=O)NCCCCC(NC(=O)C(CCCCNC(=O)CCCCCNC(=O)[C@H](CCCNC(=N)N)NC(=O)[C@H](CCCNC(=N)N)NC(=O)[C@H](CCCNC(=N)N)NC(=O)[C@H](CCCNC(=N)N)NC(=O)[C@H](C)NC(=O)[C@H](Cc1ccccc1)NC(=O)[C@H](CC(=O)O)NC(=O)[C@@H](NC(=O)[C@H](CCCCN)NC(=O)[C@H](CC(=O)O)NC(=O)[C@H](CCCNC(=N)N)NC(=O)[C@H](CCCNC(=N)N)NC(=O)[C@H](C)NC(=O)[C@@H](N)CCSC)[C@@H](C)O)NC(=O)CCCCCNC(=O)[C@H](CCCNC(=N)N)NC(=O)[C@H](CCCNC(=N)N)NC(=O)[C@H](CCCNC(=N)N)NC(=O)[C@H](CCCNC(=N)N)NC(=O)[C@H](C)NC(=O)[C@H](Cc1ccccc1)NC(=O)[C@H](CC(=O)O)NC(=O)[C@@H](NC(=O)[C@H](CCCCN)NC(=O)[C@H](CC(=O)O)NC(=O)[C@H](CCCNC(=N)N)NC(=O)[C@H](CCCNC(=N)N)NC(=O)[C@H](C)NC(=O)[C@@H](N)CCSC)[C@@H](C)O)C(N)=O)[C@@H](C)O (some centres unmarked)  tissue distribution (C57BL/6 mouse female, spine; dose not given, 3 h; relative to: total): 7.16%
CC(C)=CCC/C(C)=C/CCn1cc(CC(P(=O)(O)O)P(=O)(O)O)nn1  biliary excretion (mouse CD-1; intravenous, 0.3 mg/kg, 8 h; relative to: dose): 1.27%
NC1CCN(C(=O)Oc2ccc(C3CCCC4(C3)OOC3(O4)C4CC5CC(C4)CC3C5)cc2)CC1 (racemic)  AUC(0-t) (male Sprague-Dawley rat, plasma; oral, 50 mg/kg): 4010 ng·h/mL
CC(C)[C@H](NC(=O)[C@@H](NC(=O)[C@H](CCCNC(=N)N)NC(=O)[C@H](CCCNC(=N)N)NC(=O)[C@H](CCCNC(=N)N)NC(=O)[C@H](CCC(N)=O)NC(=O)[C@H](CCCNC(=N)N)NC(=O)[C@H](CCCNC(=N)N)NC(=O)[C@H](CCCCN)NC(=O)[C@H](CCCCN)NC(=O)[C@H](CCCNC(=N)N)NC(=O)CN)[C@@H](C)O)C(=O)N[C@H](C(=O)N[C@@H](CO)C(=O)N1CCC[C@H]1C(=O)O)[C@@H](C)O  organ weight (ICR mice, male, spleen; intranasal, 5 mg/kg daily, 4 weeks): 0.094 ± 0.022 g
